Measured values collected from several papers.
Every numbered part comes from another study and shows a few of its results, in no order. Positions count from the first letter of the parent shown.

Sample 1 — method: protein binding microarray; form: double-stranded DNA, one strand shown; matrix: in vitro; tested at: not given; relative to: not given; reading: higher = stronger binding
Target: Histone acetyltransferase KAT6A, winged helix 1, GST fusion (KAT6A, Homo sapiens, UniProt Q92794, residues 1-85)
Notes: 8-mer, flanks averaged, mean of 2 arrays, mostly near background
Residues (chain): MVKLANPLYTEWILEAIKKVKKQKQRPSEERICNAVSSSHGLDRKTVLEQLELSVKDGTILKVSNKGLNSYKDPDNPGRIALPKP
Oligonucleotide	E-score
ACCCACGT	-0.283
CGCTATTA	0.17
ATGCTCCG	0.155
ATCAGGAC	-0.113
GACCCTGA	-0.104
CTTCCGTC	0.284
GAGCTAAA	-0.197
GTCAGAAC	-0.0417
CCTCCTAA	-0.145
ATCTAACA	-0.191
CAACATCA	-0.132
CCCCGGTC	0.219
CGCGTTCC	0.365
GTGGTGGA	-0.13
GATCGTGA	-0.18
GATTTTCC	-0.0129

Sample 2 — method: RNA Bind-n-Seq; form: RNA; matrix: in vitro; tested at: 365 nM; relative to: no-protein control; reading: higher = stronger binding
Target: RNA binding protein fox-1 homolog 2, RRM domain, GST-SBP tag (RBFOX2, Homo sapiens, UniProt O43251-10, residues 100-194)
Notes: natural RNA segment, single round, ends assumed
Construct (chain): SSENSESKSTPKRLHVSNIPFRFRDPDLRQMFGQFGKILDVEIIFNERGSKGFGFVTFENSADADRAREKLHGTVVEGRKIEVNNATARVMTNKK
Oligonucleotide	RBNS enrichment (R)
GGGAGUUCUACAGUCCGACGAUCUUGGGCCAAAAAUGCAGACUCAGGUUUUAGGUGUCUUACCACAUGGCUGCCCUGUGCAGGCUGUCAUCAGAGUUCUCCAUGUGGGUCAAUACCUGCACCCCCAGGAAGAGUGGAAUUCUCGGGUGCCAA	0.487
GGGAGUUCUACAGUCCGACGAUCCUAUUGGGCUCUUAGACACAGACCUGAGCCAUGAACCCAAGCCACGUAUCUACACCAUAGCUGCCUCUCAGCUGGCUACAUAAGGAAACAUUAGGGAUUAACUGUCAGAAUGGAAUUCUCGGGUGCCAA	0.245
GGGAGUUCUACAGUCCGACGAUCAUCUGGGAAGCCGGGGCACCCCCGUUUUGUUUCUCUGGGCGGUUGUGGCAGCUGAAGGCGGACGUUGUUUCCUAACCAUAGGUGGAACGAGGAGACGGGAGCGAGUGGGCUGGAAUUCUCGGGUGCCAA	0.584
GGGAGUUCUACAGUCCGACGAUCUUAGUCCAAGGCCUUUUUCAUAAACUGAGCCUCUUUUCAAUUAUUUCAAUGGGACAGGAACUAGGAUAGAUGUGAUUCCUGCAUUUUUUUACCUUAAAUCUGCCUUUGUUUGGAAUUCUCGGGUGCCAA	0.757
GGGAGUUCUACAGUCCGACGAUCCUCUCUUUGGGGCUUCUCCCUCCCGUUUCAGGGGAAAGGUCUGAGUCUCCACGUUUCAGACCAGCUUCUGGGGGAAGGCAGUCCGGCAGGGAGACCGGGAGGGGUGGCCAUGGAAUUCUCGGGUGCCAA	0.361
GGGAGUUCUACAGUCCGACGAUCCUAAUAUAUAUUGUAUUUUUAUUUGAUAGCUUGGGAUUUAAAACAUCUCUGUUGAAGGCUUUUGAUCCUUUUGAGAAAUAAAGAUCUGAAAGAAAUGGCAUAAUCUUAAAUGGAAUUCUCGGGUGCCAA	0.552
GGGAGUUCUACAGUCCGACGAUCCUGAUAGUUGUUGGGAAUAUAUAAUUUACUGGACCUCAGCCCAAAUCAAGAUGCUUAAAAUUGUACUUGUGGAGCUUCACUCAAACCAAUGUGUCAAAUAACGUAUUGAAUGGAAUUCUCGGGUGCCAA	0.617
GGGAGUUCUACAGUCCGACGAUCAUAGCUACCUGCAAGACACUACUGUCCCUCUACUUUUGCCAGGAAAGCCACUCUACUAUGAAUGUUAUUGGGGCUACACUUGCCUUUCUUGCCCAAGGGCCUCCUGCAUAUGGAAUUCUCGGGUGCCAA	0.7
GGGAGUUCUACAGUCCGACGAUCUCCCAUCAGGCUCCUUGGAAAGUGCUUCUACUUCCGAAGCCAACCCUGAGGGGCACUCAGCCAGCUCUGACCAGGACCCUGUGGCAGACAGAGAGGGCAGCCCGGUCUCCUGGAAUUCUCGGGUGCCAA	0.378
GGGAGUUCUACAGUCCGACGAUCCCCUGCCCAGGAGCACAGCUUGCUGCUGAGGGCUGGGUGUGACCGUGUCUGCCUCUGGCUGCUGGGAGAAGCUGUUUUUCAGUUUCAGAAGCAGGCAGGACAAAGGCCAGUGGAAUUCUCGGGUGCCAA	1.77
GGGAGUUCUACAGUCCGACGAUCGUUACAGGGCUAAGUUAAAGCCAGACUUUAAAGUUCUGUCACGGUGGUAAGGAAAGAAACAGGAGGUGCUAGAGGAACCAAGAGUUCUGGUCAUUAACUCAGUCAUGCCGUGGAAUUCUCGGGUGCCAA	0.7
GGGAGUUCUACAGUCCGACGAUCUCUUGGCUGGGAUGGCACUACCCUGUGAGCCAAACACUUUAGGUGUAAGUAGGUACACUUGUGACGUCACUGACCUAGCGUACCUUUCCUUUUCAUAUCUACACUGACCUUGGAAUUCUCGGGUGCCAA	0.344

Sample 3 — target: CCNB2, cyclin fold, Cln2 fusion (human); method: yeast growth competition, sequencing; matrix: yeast; notes: weak parent motif; relative to: not given; reading: higher = stronger binding
Parent: CDKN1B docking peptide (human); PSACRNLFGPVDH; partner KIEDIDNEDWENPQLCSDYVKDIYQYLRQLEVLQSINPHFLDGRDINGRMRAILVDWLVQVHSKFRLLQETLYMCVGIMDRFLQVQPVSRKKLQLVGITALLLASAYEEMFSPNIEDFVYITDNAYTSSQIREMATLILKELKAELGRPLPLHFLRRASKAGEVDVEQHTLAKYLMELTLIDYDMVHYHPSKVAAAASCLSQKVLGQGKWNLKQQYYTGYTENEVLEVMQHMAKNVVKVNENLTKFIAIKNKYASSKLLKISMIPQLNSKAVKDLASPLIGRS
Change	normalised enrichment score
N6Q	0.202
S2P	-0.104
P1I	-0.282
N6S	-0.158
D12R	0.248
P10E	-0.197
R5A	-0.566
P1R	0.188
S2A	0.259
G9L	0.196
R5S	-0.146
L7R	0.32
S2Y	-0.0966
A3F	0.61
S2W	0.308
H13Q	0.0563
V11A	0.107
G9F	0.326
V11Y	-0.264
F8N	0.0879
S2K	0.43
A3D	-0.302
N6R	-0.00869
S2M	0.0631
R5L	-0.236

Sample 4 — method: DNA-protein interaction ELISA; form: double-stranded DNA, one strand shown; matrix: in vitro, bacterial lysate; tested at: not given; notes: whole dsDNA probe, crude lysate protein; relative to: highest signal in screen; reading: higher = stronger binding
Target: Probable WRKY transcription factor 33, C-terminal DNA-binding domain (WRKY33, Arabidopsis thaliana, UniProt Q8S8P5, residues 346-449)
Target sequence (chain): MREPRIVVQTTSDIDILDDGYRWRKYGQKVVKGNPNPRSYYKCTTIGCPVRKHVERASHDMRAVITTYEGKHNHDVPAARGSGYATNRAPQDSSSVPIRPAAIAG
Oligonucleotide	relative absorbance
AAAAAACGCCTTATGCCTCCCGCTCGAAAA	32.6 % of maximum
AAAAAATCCATGTTTAAGCTGGTCTCAAAA	44.4 % of maximum
AAAAAATCTTACCCCTCCGCTTCTATAAAA	43.2 % of maximum
AAAAAACATGTCGCACCTGTACTAACAAAA	43 % of maximum
AAAAAAGTATAACGTGTTGTTGACCGAAAA	99.4 % of maximum
AAAAAAACGGGTTGTGAATGTGGAAGAAAA	41.3 % of maximum
AAAAAAACACCTGTATAGCATGGACGAAAA	58.2 % of maximum
AAAAAAAGTTGTACTTATTATACTTTAAAA	37.4 % of maximum
AAAAAACTGACCGTCAGCGCCCACGCAAAA	88.2 % of maximum
AAAAAAAGGGTCCGGTGCATACATGTAAAA	63.9 % of maximum
AAAAAATTTATACTTGATCCTGGCTTAAAA	29 % of maximum
AAAAAAAGTGGCCGCTAGTCAACTCAAAAA	99.4 % of maximum
AAAAAATTCTTTTTTCTTCAAGGTCTAAAA	30.3 % of maximum
AAAAAACCTTCCCCCTCTTCTGCCTTAAAA	30.4 % of maximum

Sample 5 — method: aptamer microarray, sandwich; form: DNA with 2'F-ANA; matrix: in vitro; tested at: 200 nM; together with: Cy3 exosite-II aptamer, 400 nM; reading: higher = stronger binding; oligonucleotide: GGTTGGTGTGGTTGG
Target: Prothrombin, mature alpha-thrombin (F2, Homo sapiens, UniProt P00734)
Notes: whole 15-mer aptamer, many near background
Modification	mean fluorescence intensity
2'F-ANA at 3 4 6 7 8 9 10 11	215 a.u.
2'F-ANA at 1 6 9 11 13 15	208 a.u.
2'F-ANA at 4 6 11 13 14 15	68.4 a.u.
2'F-ANA at 1 2 4 6 9 10 13	56.7 a.u.
2'F-ANA at 3 4 5 6 8 10 13 15	77.3 a.u.
2'F-ANA at 1 2 5 6 7 10 12 13	47.9 a.u.
2'F-ANA at 2 3 5 10 11 13 14 15	53.8 a.u.
2'F-ANA at 4 5 7 10 15	57.1 a.u.
2'F-ANA at 1 2 3 6 11 12 14 15	79.6 a.u.
2'F-ANA at 1 2 5 7 9 11 12 14 15	44.1 a.u.
2'F-ANA at 1 2 3 8 9 10 13 14	88.1 a.u.
2'F-ANA at 4 5 6 8 12 14 15	47.5 a.u.
2'F-ANA at 1 2 3 6 8 9 13 14 15	75.3 a.u.
2'F-ANA at 2 4 8 9 10 11 13 14	59.5 a.u.
2'F-ANA at 1 3 5 8 9 10 12 14 15	46.6 a.u.
2'F-ANA at 2 3 4 6 10 12 14 15	167 a.u.
2'F-ANA at 2 3 5 7 11 13 15	141 a.u.

Further values, each from its own experiment
Molecule	target	test	system	conditions	scale	measurement	result
PhoQ, residues 284 288 289 292 302 303 SMMNNA	PhoP, residues 12 14 15 18 19 TPLRH (Escherichia coli, UniProt P23836)	Sort-seq, measured: YFP reporter	E. coli	PhoQ-PhoP variant library, together with: 10 µM Mg2+	relative to: high Mg2+ state, higher = stronger signaling	fold induction	2.01

Repeated from above (sample 4):
Oligonucleotide	relative absorbance
AAAAAACGCCTTATGCCTCCCGCTCGAAAA	32.6 % of maximum
AAAAAATCCATGTTTAAGCTGGTCTCAAAA	44.4 % of maximum
AAAAAATCTTACCCCTCCGCTTCTATAAAA	43.2 % of maximum
AAAAAACATGTCGCACCTGTACTAACAAAA	43 % of maximum
AAAAAAGTATAACGTGTTGTTGACCGAAAA	99.4 % of maximum
AAAAAAACGGGTTGTGAATGTGGAAGAAAA	41.3 % of maximum
AAAAAAACACCTGTATAGCATGGACGAAAA	58.2 % of maximum
AAAAAAAGTTGTACTTATTATACTTTAAAA	37.4 % of maximum
AAAAAACTGACCGTCAGCGCCCACGCAAAA	88.2 % of maximum
AAAAAAAGGGTCCGGTGCATACATGTAAAA	63.9 % of maximum
AAAAAATTTATACTTGATCCTGGCTTAAAA	29 % of maximum
AAAAAAAGTGGCCGCTAGTCAACTCAAAAA	99.4 % of maximum
AAAAAATTCTTTTTTCTTCAAGGTCTAAAA	30.3 % of maximum
